Assay results of several laboratories.
Compare with care: the assays were run in different laboratories. Several values in a cell are separate wells, animals, samples, runs or records. ± gives the spread as reported.
Botulinum neurotoxin type A light chain: Botulinum neurotoxin type A, light chain (Clostridium botulinum, UniProt P0DPI0)
rep R3428I 3C-like proteinase: Replicase polyprotein 1ab, 3C-like proteinase (rep, Severe acute respiratory syndrome-related coronavirus, UniProt P0C6X7, R3428I)
Chrna3/Chrnb2/Chrna6 with beta3 subunit: Chrna3/Chrnb2/Chrna6, with beta3 subunit (Rattus norvegicus, UniProt P04757+P12390+P43143)
rep main protease: Replicase polyprotein 1ab, main protease (rep, Severe acute respiratory syndrome coronavirus 2, UniProt P0DTD1)
Neuronal acetylcholine receptor; alpha3/beta2: Neuronal acetylcholine receptor; alpha3/beta2 (Rattus norvegicus, UniProt P04757+P12390)
Replicase polyprotein 1a R3428I 3C-like proteinase: Replicase polyprotein 1a, 3C-like proteinase (Severe acute respiratory syndrome-related coronavirus, UniProt P0C6U8, R3428I)
Ricin A chain: Ricin, A chain (Ricinus communis, UniProt P02879)

Sequences of proteins named here, by UniProt entry; tags and fusion partners are left off. Residues count along the entry.
UniProt P04757, 26-499 limits assumed: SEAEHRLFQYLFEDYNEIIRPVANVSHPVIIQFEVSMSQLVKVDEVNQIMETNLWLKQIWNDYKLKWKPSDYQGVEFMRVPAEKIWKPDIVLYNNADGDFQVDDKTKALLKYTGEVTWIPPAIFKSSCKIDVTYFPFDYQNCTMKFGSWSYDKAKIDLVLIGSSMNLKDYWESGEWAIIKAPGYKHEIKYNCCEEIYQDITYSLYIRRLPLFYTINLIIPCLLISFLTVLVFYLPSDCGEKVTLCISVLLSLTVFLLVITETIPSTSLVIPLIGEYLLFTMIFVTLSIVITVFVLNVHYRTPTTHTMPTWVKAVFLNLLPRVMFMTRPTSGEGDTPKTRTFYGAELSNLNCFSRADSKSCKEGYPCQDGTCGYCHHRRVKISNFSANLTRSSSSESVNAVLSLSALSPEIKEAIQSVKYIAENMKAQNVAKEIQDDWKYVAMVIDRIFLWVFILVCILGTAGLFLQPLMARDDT
UniProt P04757, whole entry, looked up: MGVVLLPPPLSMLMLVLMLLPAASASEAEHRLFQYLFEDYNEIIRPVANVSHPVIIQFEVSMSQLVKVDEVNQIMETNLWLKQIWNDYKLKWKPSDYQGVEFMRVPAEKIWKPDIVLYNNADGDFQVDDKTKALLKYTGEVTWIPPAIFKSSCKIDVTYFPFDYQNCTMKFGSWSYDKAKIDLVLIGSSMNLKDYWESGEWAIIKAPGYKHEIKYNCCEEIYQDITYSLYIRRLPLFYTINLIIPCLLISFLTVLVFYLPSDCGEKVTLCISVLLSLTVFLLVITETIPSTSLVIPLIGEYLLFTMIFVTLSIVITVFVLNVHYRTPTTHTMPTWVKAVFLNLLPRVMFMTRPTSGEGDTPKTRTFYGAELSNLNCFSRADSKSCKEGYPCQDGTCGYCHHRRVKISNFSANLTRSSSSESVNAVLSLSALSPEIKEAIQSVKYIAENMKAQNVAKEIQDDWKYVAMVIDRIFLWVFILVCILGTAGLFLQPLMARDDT
UniProt P12390, 25-500 limits assumed: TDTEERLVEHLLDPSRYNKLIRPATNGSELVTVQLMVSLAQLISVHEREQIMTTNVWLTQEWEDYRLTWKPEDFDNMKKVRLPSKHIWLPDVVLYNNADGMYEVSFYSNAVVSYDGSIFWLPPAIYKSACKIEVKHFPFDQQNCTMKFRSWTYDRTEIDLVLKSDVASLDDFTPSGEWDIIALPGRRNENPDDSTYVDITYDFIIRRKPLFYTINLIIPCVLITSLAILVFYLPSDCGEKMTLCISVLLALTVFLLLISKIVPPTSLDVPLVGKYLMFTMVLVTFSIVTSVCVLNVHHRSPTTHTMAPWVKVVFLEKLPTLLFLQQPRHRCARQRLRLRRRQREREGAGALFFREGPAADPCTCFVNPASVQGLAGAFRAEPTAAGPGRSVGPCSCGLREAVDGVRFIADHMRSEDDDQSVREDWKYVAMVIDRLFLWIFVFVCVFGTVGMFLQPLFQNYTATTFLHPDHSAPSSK
UniProt P12390, whole entry, looked up: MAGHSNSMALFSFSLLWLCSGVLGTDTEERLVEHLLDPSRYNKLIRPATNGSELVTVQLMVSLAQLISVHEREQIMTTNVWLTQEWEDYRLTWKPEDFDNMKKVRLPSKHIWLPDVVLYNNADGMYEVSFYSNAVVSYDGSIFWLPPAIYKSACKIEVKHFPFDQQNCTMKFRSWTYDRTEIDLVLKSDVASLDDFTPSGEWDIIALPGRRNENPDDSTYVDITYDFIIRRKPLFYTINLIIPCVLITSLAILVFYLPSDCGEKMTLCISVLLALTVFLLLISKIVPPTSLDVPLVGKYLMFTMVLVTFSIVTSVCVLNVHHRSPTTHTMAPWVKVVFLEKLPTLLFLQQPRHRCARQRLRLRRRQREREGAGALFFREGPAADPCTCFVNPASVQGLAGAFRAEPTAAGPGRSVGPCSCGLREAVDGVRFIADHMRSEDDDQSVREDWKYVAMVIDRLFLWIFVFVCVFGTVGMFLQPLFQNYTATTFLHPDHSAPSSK
UniProt P43143, whole entry M241L/F253L/V303I/V320I/I327V/A333T/K339T, looked up: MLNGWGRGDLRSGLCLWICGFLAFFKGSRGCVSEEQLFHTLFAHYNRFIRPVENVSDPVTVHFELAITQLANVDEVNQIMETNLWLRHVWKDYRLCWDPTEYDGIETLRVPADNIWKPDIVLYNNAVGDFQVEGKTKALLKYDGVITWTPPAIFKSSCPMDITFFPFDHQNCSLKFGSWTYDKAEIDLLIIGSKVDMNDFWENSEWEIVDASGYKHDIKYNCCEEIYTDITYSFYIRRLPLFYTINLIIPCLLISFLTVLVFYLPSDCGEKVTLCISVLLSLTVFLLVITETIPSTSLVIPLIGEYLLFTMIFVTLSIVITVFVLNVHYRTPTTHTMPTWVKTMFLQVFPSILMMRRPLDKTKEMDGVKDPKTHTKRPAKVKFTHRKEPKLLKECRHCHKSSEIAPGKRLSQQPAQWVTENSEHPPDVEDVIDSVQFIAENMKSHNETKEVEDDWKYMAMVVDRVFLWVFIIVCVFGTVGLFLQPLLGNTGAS
UniProt P36544, 23-502 limits assumed: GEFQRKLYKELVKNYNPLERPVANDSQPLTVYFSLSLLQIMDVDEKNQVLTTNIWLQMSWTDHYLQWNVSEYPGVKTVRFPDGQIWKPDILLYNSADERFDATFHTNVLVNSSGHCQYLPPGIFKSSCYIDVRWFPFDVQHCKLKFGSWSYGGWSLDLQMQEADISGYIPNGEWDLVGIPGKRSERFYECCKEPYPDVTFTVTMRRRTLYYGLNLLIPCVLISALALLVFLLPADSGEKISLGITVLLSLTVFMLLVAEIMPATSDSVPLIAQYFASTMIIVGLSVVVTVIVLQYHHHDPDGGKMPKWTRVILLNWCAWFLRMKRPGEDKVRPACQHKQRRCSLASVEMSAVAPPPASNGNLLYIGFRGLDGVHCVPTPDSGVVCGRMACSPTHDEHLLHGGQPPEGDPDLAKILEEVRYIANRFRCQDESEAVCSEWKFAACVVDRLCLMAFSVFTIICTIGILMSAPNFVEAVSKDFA

Structure (SMILES) | target | assay | system | setting | IC50
C=C(C)C(=O)Nc1cccc(C2=NOC3(C2)C[C@@H](C(N)=O)N(C(=O)C2(C)CC2)C3)c1 (stereo partly shown) | Botulinum neurotoxin type A light chain | inhibitor, FRET, YFP-SNAP25-CFP substrate | – | no reducing agent | 0.4 ± 0.2 µM
CC(C)C[C@H](NC(=O)[C@@H](NC(=O)COc1ccc([N+](=O)[O-])cc1)C(C)C)C(=O)N[C@@H](C[C@@H]1CCNC1=O)C(=O)c1nc2ccccc2s1 | rep R3428I 3C-like proteinase | enzyme activity, inhibitor, HPLC | – | 60 min, 37 °C, together with: substrate 111 µM | 3.4 µM
COc1cc(/C=C/C(=O)N[C@@H](COC(=O)c2ccccc2)C(=O)NC2CCCCC2)cc(OC)c1OC | rep R3428I 3C-like proteinase | enzyme activity, inhibitor, HPLC substrate depletion | – | pH 4.0 | 74 µM
CC(C)C[C@@H]1NC(=O)[C@H](CCC(N)=O)NC(=O)[C@@H]2CCCN2C(=O)[C@H](Cc2c[nH]cn2)NC(=O)[C@H](CC(N)=O)NC(=O)[C@H](C(C)C)NC(=O)[C@H](CO)NC(=O)[C@@H]2CSSC[C@H](NC(=O)CN)C(=O)N[C@@H](CSSC[C@@H](C(N)=O)NC1=O)C(=O)N[C@@H](CO)C(=O)N[C@@H](Cc1c[nH]cn1)C(=O)N1CCC[C@H]1C(=O)N[C@@H](C)C(=O)N2 | Chrna3/Chrnb2/Chrna6 with beta3 subunit | ion current, antagonist, two-electrode voltage clamp | Xenopus laevis oocytes | together with: 100 µM acetylcholine | 0.0144 µM
O=C(NCc1cccs1)[C@@H]1CN(C(=O)c2cccnc2)CCN1c1ccc(Cl)c(Cl)c1 | rep main protease | enzyme activity, inhibitor | – | – | 0.05 µM
CC(C)C[C@@H]1NC(=O)[C@H](CCC(=O)O)NC(=O)[C@@H]2CCCN2C(=O)[C@H](Cc2c[nH]cn2)NC(=O)[C@H](CC(N)=O)NC(=O)[C@H](C(C)C)NC(=O)[C@H](CC(N)=O)NC(=O)[C@@H]2CSSC[C@H](NC(=O)CN)C(=O)N[C@@H](CSSC[C@@H](C(N)=O)NC1=O)C(=O)N[C@@H](CO)C(=O)N[C@@H](Cc1c[nH]cn1)C(=O)N1CCC[C@H]1C(=O)N[C@@H](C)C(=O)N2 | Neuronal acetylcholine receptor; alpha3/beta2 | ion current, antagonist, two-electrode voltage clamp | Xenopus laevis oocytes | together with: 100 µM acetylcholine | 0.00932 µM
O=C(/C=C/c1ccccc1)N[C@@H](c1ccccc1)[C@@H](O)C(=O)NC1CCCCC1 | Replicase polyprotein 1a R3428I 3C-like proteinase | enzyme activity, inhibitor | – | pH 4.0 | > 500 µM
CC(C)C[C@@H]1NC(=O)[C@H](CCC(=O)O)NC(=O)[C@@H]2CCCN2C(=O)[C@H](Cc2c[nH]cn2)NC(=O)[C@H](CC(N)=O)NC(=O)[C@H](C(C)C)NC(=O)[C@H](Cc2ccc(O)cc2)NC(=O)[C@@H]2CSSC[C@H](NC(=O)CN)C(=O)N[C@@H](CSSC[C@@H](C(N)=O)NC1=O)C(=O)N[C@@H](CO)C(=O)N[C@@H](Cc1c[nH]cn1)C(=O)N1CCC[C@H]1C(=O)N[C@@H](C)C(=O)N2 | Neuronal acetylcholine receptor; alpha3/beta2 | ion current, antagonist, two-electrode voltage clamp | Xenopus laevis oocytes | together with: 100 µM acetylcholine | 0.00918 µM
O=C(/C=C/c1ccccc1)N[C@H](COC(=O)c1ccccc1)C(=O)NCc1ccccc1 | rep R3428I 3C-like proteinase | enzyme activity, inhibitor, HPLC substrate depletion | – | pH 4.0 | 225 µM
O=C(c1ccc2c(c1)OCO2)C1CCCN(C2CCN(CCc3ccccc3)CC2)C1 (stereo not shown) | Botulinum neurotoxin type A light chain | inhibitor, FRET, YFP-SNAP25-CFP substrate | – | no reducing agent | 0.1 µM
CC(=O)OC[C@H](NC(=O)/C=C/c1ccccc1)C(=O)NC1CCCCC1 | rep R3428I 3C-like proteinase | enzyme activity, inhibitor, HPLC substrate depletion | – | pH 4.0 | 400 µM
COc1cc(/C=C/C(=O)O[C@@H](C(=O)NC2CCCCC2)[C@@H](NC(=O)/C=C/c2ccccc2)c2ccccc2)cc(OC)c1 | Replicase polyprotein 1a R3428I 3C-like proteinase | enzyme activity, inhibitor | – | pH 4.0 | 125 µM
Cc1ccc(C(=O)Nc2ccc(S(=O)(=O)O)c3cc(S(=O)(=O)O)cc(S(=O)(=O)O)c23)cc1NC(=O)c1cccc(NC(=O)Nc2cccc(C(=O)Nc3cc(C(=O)Nc4ccc(S(=O)(=O)O)c5cc(S(=O)(=O)O)cc(S(=O)(=O)O)c45)ccc3C)c2)c1 | RNA-directed RNA polymerase L, with VP35 (Zaire ebolavirus, UniProt X5H5B6) | RNA synthesis, inhibitor, primer extension | – | 1 h, pH 8.0, 30 °C, together with: 1 mM CTP, UTP, ATP | 11.2 µM
COc1cc(CNC(=O)c2cnc3c(=O)[nH]c(N)nc3n2)cc(OC)c1OC | Ricin A chain | recovery of translation, inhibitor, in vitro luciferase translation | rabbit reticulocyte lysate | – | no inhibition
O=C(O)c1ccc(Cc2cccs2)cc1 | Ricin A chain | ribosome depurination, inhibitor | yeast ribosomes | pH 7.4 | 32 µM
O=C1NN(c2ccccc2)C(=O)/C1=C\c1ccc(-c2cc([N+](=O)[O-])ccc2O)o1 | Botulinum neurotoxin type A light chain | inhibitor, FRET, SNAPtide substrate | – | no reducing agent | 8 ± 3 µM

Structure (SMILES) | target | assay | system | setting | IC50
CC(C)C[C@H](NC(=O)[C@@H](NC(=O)Oc1ccccc1)C(C)C)C(=O)N[C@@H](Cc1c[nH]cn1)C(=O)c1nccs1 | rep R3428I 3C-like proteinase | enzyme activity, inhibitor, HPLC | – | 60 min, 37 °C, together with: substrate 111 µM | > 1600 µM
O=C(CCc1ccc(O)cc1)N[C@@H](COC(=O)c1ccccc1)C(=O)NC1CCCCC1 | rep R3428I 3C-like proteinase | enzyme activity, inhibitor, HPLC substrate depletion | – | pH 4.0 | > 3200 µM
CC(C)C[C@H](NC(=O)[C@@H](NC(=O)COc1ccc(C(=O)O)cc1)C(C)C)C(=O)N[C@@H](C[C@@H]1CCNC1=O)C(=O)c1nc2ccccc2s1 | rep R3428I 3C-like proteinase | enzyme activity, inhibitor, HPLC | – | 60 min, 37 °C, together with: substrate 111 µM | 1.7 µM
CC[C@H](C)[C@@H]1NC(=O)[C@H](CCC(=O)O)NC(=O)[C@@H]2CCCN2C(=O)[C@H](Cc2c[nH]cn2)NC(=O)[C@H](CCCCC(=O)O)NC(=O)[C@H](CC(C)C)NC(=O)[C@H](Cc2c[nH]cn2)NC(=O)[C@@H]2CSSC[C@H](NC(=O)CN)C(=O)N[C@@H](CSSC[C@@H](C(N)=O)NC1=O)C(=O)N[C@@H](CO)C(=O)N[C@@H](Cc1c[nH]cn1)C(=O)N1CCC[C@H]1C(=O)N[C@@H](C)C(=O)N2 | Chrna3/Chrnb2/Chrna6 with beta3 subunit | ion current, antagonist, two-electrode voltage clamp | Xenopus laevis oocytes | together with: 100 µM acetylcholine | 0.0582 µM
C[C@@H]1NC(=O)[C@H](CCCNC(=N)N)NC(=O)[C@H](CCCNC(=N)N)NC(=O)[C@H](Cc2c[nH]cn2)NC(=O)[C@H](CO)NC(=O)[C@H](CCCCN)NC(=O)[C@@H]2CSSC[C@H](NC(=O)CN)C(=O)N[C@@H](CSSC[C@@H](C(N)=O)NC(=O)[C@H](CCCNC(=N)N)NC1=O)C(=O)N[C@@H](CO)C(=O)N[C@@H](Cc1c[nH]cn1)C(=O)N1CCC[C@H]1C(=O)N[C@@H](C)C(=O)N2 | Neuronal acetylcholine receptor subunit alpha-7 (CHRNA7, Homo sapiens, UniProt P36544) | ion current, antagonist, two-electrode voltage clamp | Xenopus oocytes | holding -70 mV, together with: 100 µM acetylcholine | 1.89 µM
COc1ccc([C@@H]2CC(=O)c3c(O)cc(O)cc3O2)cc1O | Replicase polyprotein 1ab, 3C-like proteinase (rep, Severe acute respiratory syndrome-related coronavirus, UniProt P0C6X7) | 3CLpro cleavage, inhibitor, ELISA | – | 3 h | 60 µM and 59.9 µM
Nc1nc2nc(C(=O)NCc3ccc(F)cc3)cnc2c(=O)[nH]1 | Ricin A chain | recovery of translation, inhibitor, in vitro luciferase translation | rabbit reticulocyte lysate | – | 570 µM
O=C(/C=C/c1ccccc1)N[C@@H](COC(=O)c1cc([N+](=O)[O-])cc([N+](=O)[O-])c1)C(=O)NC1CCCCC1 | rep R3428I 3C-like proteinase | enzyme activity, inhibitor, HPLC substrate depletion | – | pH 4.0 | 250 µM
CNC(=O)ON=C(C)SC | Acetylcholinesterase (Cavia porcellus, UniProt D3YE96) | Ellman | – | – | 15 µM
CSCC[C@H](NC(=O)[C@H](CC(=O)O)NC(=O)[C@H](CC(=O)O)NC(=O)[C@@H](N)CC(=O)O)C(=O)NCC(=O)N[C@@H](Cc1ccccc1)C(=O)NCC(=O)N[C@@H](CC(C)C)C(=O)N[C@@H](Cc1ccccc1)C(=O)N[C@@H](CC(=O)O)C(=O)O | Shiga-like toxin 2 subunit A, A1 fragment (UniProt P09385) | ribosome depurination | yeast ribosomes | pH 7.4 | 28 ± 4 µM
O=C(O)C1CN(Cc2ccc(CO)cc2)Cc2ccccc21 (stereo not shown) | Replicase polyprotein 1ab, nsp13 helicase (rep, Severe acute respiratory syndrome coronavirus 2, UniProt P0DTD1) | inhibitor | – | – | 4.5 to 5.7 µM
O=C(/C=C/c1ccccc1)N[C@H](COC(=O)c1ccccc1)C(=O)NCC1CCCCC1 | rep R3428I 3C-like proteinase | enzyme activity, inhibitor, HPLC substrate depletion | – | pH 4.0 | 430 µM
COc1ccccc1OCC(=O)N[C@H](C(=O)N[C@@H](CC(C)C)C(=O)N[C@@H](C[C@@H]1CCNC1=O)C(=O)c1nc2ccccc2s1)C(C)C | rep R3428I 3C-like proteinase | enzyme activity, inhibitor, HPLC | – | 60 min, 37 °C, together with: substrate 111 µM | 1.9 µM
O=C(/C=C/c1ccccc1)N[C@@H](COC(=O)c1ccncc1)C(=O)NC1CCCCC1 | rep R3428I 3C-like proteinase | enzyme activity, inhibitor, HPLC substrate depletion | – | pH 4.0 | 175 µM
c1ccc2c(c1)OCC(C1=NCCN1)O2 (stereo not shown) | rep main protease | luciferase reporter, inhibitor | SARS-CoV-2 | 48 h | 17.4 µM

For quick reference, copied from above:
Structure (SMILES) | target | assay | system | setting | IC50
COc1cc(/C=C/C(=O)O[C@@H](C(=O)NC2CCCCC2)[C@@H](NC(=O)/C=C/c2ccccc2)c2ccccc2)cc(OC)c1 | Replicase polyprotein 1a R3428I 3C-like proteinase | enzyme activity, inhibitor | – | pH 4.0 | 125 µM
Nc1nc2nc(C(=O)NCc3ccc(F)cc3)cnc2c(=O)[nH]1 | Ricin A chain | recovery of translation, inhibitor, in vitro luciferase translation | rabbit reticulocyte lysate | – | 570 µM
O=C(/C=C/c1ccccc1)N[C@@H](c1ccccc1)[C@@H](O)C(=O)NC1CCCCC1 | Replicase polyprotein 1a R3428I 3C-like proteinase | enzyme activity, inhibitor | – | pH 4.0 | > 500 µM
